Experimental data gathered from unrelated publications.
Numbered parts are unrelated; each lists some results of a single study.

Series 1 — technique: protein binding microarray; molecule type: double-stranded DNA, one strand shown; medium: in vitro; concentration: not given; reference: not given; reading: higher = stronger binding; quantity: E-score
Target: Histone acetyltransferase KAT6A, both winged helices, GST fusion (KAT6A, Homo sapiens, UniProt Q92794, residues 1-181)
Notes: 8-mer, flanks averaged, mean of 2 arrays, mostly near background
Target sequence (chain): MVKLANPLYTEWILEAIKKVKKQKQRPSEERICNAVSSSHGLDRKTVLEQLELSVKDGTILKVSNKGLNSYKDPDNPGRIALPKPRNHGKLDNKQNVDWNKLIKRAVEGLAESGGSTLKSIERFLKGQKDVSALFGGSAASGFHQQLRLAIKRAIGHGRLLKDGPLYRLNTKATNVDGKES
Sequence = ACAGATTC; result = -0.0411
Sequence = ATTCACAG; result = -0.108
Sequence = AGTCATAC; result = -0.176
Sequence = AATTCTCG; result = -0.117
Sequence = GGGCGGAC; result = 0.181
Sequence = GCTCTCAC; result = 0.00773
Sequence = GATTCGGC; result = 0.187
Sequence = ACTGCCAG; result = -0.0482

Series 2 — read-out: enzyme activity; concentration: 10 µM; quantity: inhibition
Target: Replicase polyprotein 1ab, 3C-like proteinase (rep, Middle East respiratory syndrome-related coronavirus, UniProt K9N7C7)
SMILES = S=C(S)N1CCCC1; result = 42%
SMILES = O=c1cc(-c2ccccc2)oc2cc(O)c(O)c(O)c12; result = 47%
SMILES = O=C(O[C@@H]1Cc2c(O)cc(O)cc2O[C@@H]1c1cc(O)c(O)c(O)c1)c1cc(O)c(O)c(O)c1; result = 10%
SMILES = Oc1cc2c(cc1O)C(c1ccccc1)CNCC2 (stereo not shown); result = 5%
SMILES = CN1CCc2cccc3c2[C@H]1Cc1ccc(O)c(O)c1-3; result = 6%

Series 3 — technique: protein-binding microarray; molecule type: double-stranded DNA, one strand shown; medium: in vitro; concentration: 2200 nM top; notes: 60-bp whole probe; with: salmon DNA 0.4 mg/ml; reference: random background probes; reading: higher = stronger binding; quantity: fitted relative affinity; shared flanks, not repeated: GCCTAGCAC … GTCTTGATTCGCTTGACGCTGCTG
Target: Interferon regulatory factor 7, full length, phosphomimetic (IRF7, Homo sapiens, UniProt Q92985, residues 1-503, S471D/S472D/S475D/S476D/S477D/S483D/S484D/S487D)
Construct (chain): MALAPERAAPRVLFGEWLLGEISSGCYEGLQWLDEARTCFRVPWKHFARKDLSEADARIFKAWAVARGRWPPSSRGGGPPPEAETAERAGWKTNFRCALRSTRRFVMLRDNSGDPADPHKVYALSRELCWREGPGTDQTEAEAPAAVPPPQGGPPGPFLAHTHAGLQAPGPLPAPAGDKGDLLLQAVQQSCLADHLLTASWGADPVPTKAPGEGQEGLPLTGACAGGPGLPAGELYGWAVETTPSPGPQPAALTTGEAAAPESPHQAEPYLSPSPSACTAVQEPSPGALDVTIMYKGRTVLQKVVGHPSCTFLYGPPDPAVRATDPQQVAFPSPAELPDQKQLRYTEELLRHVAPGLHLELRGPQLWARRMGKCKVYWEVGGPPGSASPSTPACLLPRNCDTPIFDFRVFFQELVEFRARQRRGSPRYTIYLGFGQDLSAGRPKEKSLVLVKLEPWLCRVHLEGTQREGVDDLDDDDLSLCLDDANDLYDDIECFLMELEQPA
Sequence = GACGATATCAGTTTCGATACGTGCTAG; result = 5.26 z-score
Sequence = ACAACTAGGGAATTTAGAAAAGTGCTA; result = -1.26 z-score
Sequence = TCATATATTCATATATAACTGTGCTAG; result = 0.867 z-score
Sequence = TCATGTTTGTCCCTATTACTGTGCTAG; result = 2.68 z-score
Sequence = GATTTTTTAGCTTGCAAAAAGTGCTAG; result = -0.407 z-score
Sequence = GCATTTTTCTAATTTACTTTGTGCTAG; result = 2.01 z-score
Sequence = GACGGTAGCCTTCTCCTGACGTGCTAG; result = 0.134 z-score
Sequence = TCAGTGATAGCTCTGGTACTGTGCTAG; result = -0.2 z-score

Single results of other studies
Structure (SMILES) = CCS(=O)(=O)N(C)[C@H]1c2cc(C#N)ccc2OC(C)(C)[C@@H]1O (racemic); target = Replicase polyprotein 1ab, nsp12 with nsp7/nsp8 (rep, Severe acute respiratory syndrome coronavirus 2, UniProt P0DTD1); mode = inhibitor; concentration = 20 µM; quantity = inhibition; result = 2.96%
